Results gathered from unrelated publications.
Each line is one published result; not all experiments were run side by side. Numbers after ± are the reported error.
Sequence of UniProt O43293 (whole entry, looked up): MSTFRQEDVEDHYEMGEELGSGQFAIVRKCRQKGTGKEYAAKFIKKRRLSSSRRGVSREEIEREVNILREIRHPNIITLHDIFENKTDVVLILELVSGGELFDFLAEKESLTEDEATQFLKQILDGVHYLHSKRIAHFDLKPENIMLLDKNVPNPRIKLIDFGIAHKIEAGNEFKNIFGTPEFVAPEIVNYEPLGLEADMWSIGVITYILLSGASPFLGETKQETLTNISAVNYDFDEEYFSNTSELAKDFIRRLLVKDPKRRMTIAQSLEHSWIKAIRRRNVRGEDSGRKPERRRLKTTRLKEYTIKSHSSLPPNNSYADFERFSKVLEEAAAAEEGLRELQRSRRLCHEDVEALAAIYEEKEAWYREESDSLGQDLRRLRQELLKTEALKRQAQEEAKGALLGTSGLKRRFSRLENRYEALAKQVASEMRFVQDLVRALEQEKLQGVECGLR

SMILES | target or system | assay | test system | setting | how to read | endpoint | value
C[C@H]1CN(c2n[nH]c3nc(N[C@H]4CC[C@H](NS(=O)(=O)CCC(F)(F)F)CC4)ncc23)CCO1 | DAPK3 (Homo sapiens, UniProt O43293) | inhibitor, Kinobeads competition profiling |  | 0.8 µM | reference: vehicle | relative abundance | 1.07
CC(C)C[C@H](NC(=O)[C@H](CCCCN)NC(=O)OCC1c2ccccc2-c2ccccc21)C(=O)N[C@H](C(=O)N[C@@H](Cc1ccccc1)C(=O)N[C@@H](Cc1ccccc1)C(=O)N[C@@H](CCCCN)C(=O)NCC(=O)N[C@@H](Cc1ccccc1)C(=O)N[C@@H](C)C(=O)N[C@@H](Cc1c[nH]c2ccccc12)C(=O)N[C@@H](CC(N)=O)C(=O)N[C@H](C(=O)N[C@H]1CSSC[C@@H](C(=O)N[C@@H](Cc2c[nH]cn2)C(=O)N[C@@H](CCCNC(=N)N)C(=O)N[C@@H](CCCNC(=N)N)C(=O)N[C@@H](C)C(=O)N[C@@H](CC(N)=O)C(N)=O)NC(=O)[C@H](C(C)C)NC(=O)[C@H](CCCNC(=N)N)NC(=O)[C@H](C(C)C)NC(=O)CNC(=O)[C@H](CC(N)=O)NC(=O)[C@H](CCCNC(=N)N)NC(=O)[C@H](Cc2ccc(O)cc2)NC(=O)[C@H](C(C)C)NC1=O)C(C)C)C(C)C |  |  | ICR mouse | ip, 5 mg/kg | direction not given | group interaction score | 0
C[C@]1(CO)Cc2ncn(-c3ccc(C#N)c(Cl)c3)c2C(=O)O1 |  |  | human | 10 mg, European food-effect part, fed |  | drug-related TEAEs | 8.3%
C=CCNc1c(O)cc2c(O)c1C[C@@H](C)C[C@H](OC)[C@H](O)[C@@H](C)/C=C(\C)[C@H](OC(N)=O)[C@@H](OC)/C=C\C=C(/C)C(=O)N2 |  |  | unresectable or metastatic sarcoma | intravenous, 500 mg/m^2, grade 3-4 lab change |  | patients with lipase increase | 0%
NC(=O)[C@H]1CCN(c2ncnc(N)c2F)C[C@@H]1N1CCC[C@@H](Nc2cc(Cl)cc(C(F)(F)F)c2)C1=O |  |  | B-cell malignancy patients | oral, 20.5 mg twice daily, dose |  | grade ≥3 thrombocytopenia | 67%
Cc1cc(C)c(CNC(=O)c2cc(Cl)c3c(c2C)O[C@@](C)([C@H]2CC[C@H](N(C)C)CC2)O3)c(=O)[nH]1 |  |  | relapsed/refractory NHL patients | dose not given, trial, safety set, all TEAEs grade 5 |  | incidence of Pneumocystis jirovecii pneumonia | 0%
COc1cc(N2CCC(N3CCN(C)CC3)CC2)ccc1Nc1ncnc(Nc2ccccc2S(=O)(=O)C(C)C)n1 |  | measured: Rash | Japanese patients with solid tumours | oral, dose not given, all grades |  | treatment-emergent adverse events | 5 number (percent)
CC(=O)c1c(C)c2cnc(Nc3ccc(C4CCN(CCS(C)(=O)=O)CC4)cn3)nc2n(C2CCCC2)c1=O |  |  | HR+/HER2- advanced breast cancer patients | oral, dose not given, grade 3/4,, sample A patients |  | patients with GGT increased | 2.5%
CN1CCN(S(=O)(=O)c2cc([N+](=O)[O-])ccc2N(CCOS(C)(=O)=O)CCOS(C)(=O)=O)CC1 |  |  | naive NOD/SCID mice, pooled blood | intraperitoneal, 18.8 mg/kg, week 4 |  | glucose | 4.4 mmol/L
CO[C@H]1C[C@@H]2CC[C@@H](C)[C@@](O)(O2)C(=O)C(=O)N2CCCC[C@H]2C(=O)O[C@H]([C@H](C)C[C@@H]2CC[C@@H](OC(=O)NCCOCCOCCOCCOCCOCCOCCOCCOCCC(=O)N3CCc4cc(Cn5nc(-c6ccc7oc(N)nc7c6)c6c(N)ncnc65)ccc4C3)[C@H](OC)C2)C[C@@H](O)[C@H](C)/C=C(\C)[C@@H](O)[C@@H](OC)C(=O)[C@H](C)C[C@H](C)/C=C/C=C/C=C/1C |  | dose-escalation trial | patients with advanced solid tumours | intravenous, all doses weekly, grade ≥3 |  | AEs leading to discontinuation | 10.5%
CN1CC[C@@H](c2c(O)cc(O)c3c(=O)cc(-c4ccc(C(F)(F)F)cc4Cl)oc23)[C@@H]1CO |  | measured: Neutropenia | relapsed B-cell malignancies | oral, 150 mg, grade 3-4, intermittent dosing |  | patients with adverse event | 0%
O=S(=O)(Nc1ccccc1)c1ccc(NC(=S)Nc2ccccc2)cc1 |  | measured: TRIG | female mouse, blood | oral, 80 mg/kg daily, 14 days |  | blood chemistry level | 120 mg/dL
C=CC(=O)N1CC[C@H](n2nc(C#Cc3cc(OC)cc(OC)c3)c3c(N)ncnc32)C1 |  |  | human patients, serum | oral, dose not given, QD, before phosphate binder start |  | serum phosphate | 5.87 mg/dL
Clc1ccc(-c2ccccc2)cc1 |  |  | female Sprague-Dawley rats, serum | inhalation, 23 µg/rat, 4 h after exposure |  | total protein | 6 ± 0.5 g/dL
CCc1ccc(CC/C=C/c2ccc3c(c2)C(=O)CC3)cc1 |  |  | Sprague-Dawley rat, male, blood | oral, 450 mg/kg/day, 14 days |  | mean platelet volume | 11.5 fL

A few entries again:
SMILES | target or system | assay | test system | setting | how to read | endpoint | value
Clc1ccc(-c2ccccc2)cc1 |  |  | female Sprague-Dawley rats, serum | inhalation, 23 µg/rat, 4 h after exposure |  | total protein | 6 ± 0.5 g/dL
